Measured values pooled from the literature.
Every numbered part comes from another study and shows a few of its results, in no order.

Set 1
Target: Centromere-binding protein 1, full length, His-tagged (CBF1, Saccharomyces cerevisiae, UniProt P17106, residues 1-351)
UniProt P17106, sequence (whole entry, looked up): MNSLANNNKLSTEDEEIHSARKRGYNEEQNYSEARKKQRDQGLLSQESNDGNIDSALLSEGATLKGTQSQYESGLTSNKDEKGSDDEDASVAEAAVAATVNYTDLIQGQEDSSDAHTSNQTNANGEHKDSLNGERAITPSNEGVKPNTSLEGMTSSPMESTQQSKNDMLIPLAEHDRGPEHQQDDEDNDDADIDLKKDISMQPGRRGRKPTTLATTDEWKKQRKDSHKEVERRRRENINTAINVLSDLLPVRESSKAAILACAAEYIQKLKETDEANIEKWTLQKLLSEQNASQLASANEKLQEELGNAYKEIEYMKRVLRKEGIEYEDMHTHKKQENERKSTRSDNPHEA
Method: competition protein-binding microarray
Form: double-stranded DNA, one strand shown
Medium: in vitro
Tested at: 2 µM
Setting: whole 60-bp probe, lowest competitor level
With: Pho4 competitor, 0.05 µM
Reading: higher = stronger binding
Shared flanks, not repeated: … GTCTTGATTCGCTTGACGCTGCTG
Strand | fluorescence intensity
TCCTCCCAGACGGGAAACGTGTCGGTCGCTTCTGTT | 68.8 a.u.
TATGCCCATCCCAAGATCATGCCCGGGAGAGCAAAT | 56.1 a.u.
CGTCCTAGTGATTGCGTCGTGGGTGCCATGAGGAAG | 77.7 a.u.
GTCTTGAAGTTGGCGCACATGGAAATCAAATGACCA | 143 a.u.
AATTGATTCATATGGAACGTGACTCGTCCTCTGTAG | 483 a.u.
CATACCCAACCTTGTGGGGTGGGTGAAGATATTTGT | 72.4 a.u.
CCGATTTAAATGTCCCACGTAAACTTTTCGCCAATT | 81.5 a.u.
TACACCGCACTTTCTGGCGTGCTTTGATCTGGCTTG | 56.3 a.u.
GCTTTCTAAAGCCGTCACGGCAATAGAAAATTGCGC | 87.6 a.u.
ACACTTCTGAGCGGCCACGTGTAGAGGGGTAAGCTA | 586 a.u.
AACTCACCCCATTTGCTCGTGGGTAGTGACGACCGC | 65.5 a.u.
CGGGGTTAAGTTTGAGTTGTGGGTGGCTTGCAGCAG | 69.2 a.u.
GGCCCATGAACCCATCACGTTTTTCTAATGCAGGGC | 498 a.u.
TTTGTGGCTTAGCATCTCGTGAGGATATGGAAGACT | 116 a.u.
CTAACGAAGGTTTGCATCGTGGGTGACAAGCCAAGT | 57.4 a.u.
AAGCTACATATAAGGAACGTGCTTTTACTCATCCTA | 127 a.u.
TGAAGAGTGTTGTCTCATGTGACAGTGAATGCCATT | 541 a.u.
CCCTCCCAGTTCTCGCGCGTGTGGAGAGTGGGTTCT | 63 a.u.

Set 2
Target: Interferon regulatory factor 7, full length, phosphomimetic (IRF7, Homo sapiens, UniProt Q92985, residues 1-503, S101K/S471D/S472D/S475D/S476D/S477D/S483D/S484D/S487D)
Method: protein-binding microarray
Form: double-stranded DNA, one strand shown
Medium: in vitro
Tested at: 250 nM
Setting: 60-bp whole probe
With: salmon DNA 0.4 mg/ml
Baseline: random background probes
Reading: higher = stronger binding
Shared flanks, not repeated: GCCTAGCAC … GTCTTGATTCGCTTGACGCTGCTG
Residues (chain): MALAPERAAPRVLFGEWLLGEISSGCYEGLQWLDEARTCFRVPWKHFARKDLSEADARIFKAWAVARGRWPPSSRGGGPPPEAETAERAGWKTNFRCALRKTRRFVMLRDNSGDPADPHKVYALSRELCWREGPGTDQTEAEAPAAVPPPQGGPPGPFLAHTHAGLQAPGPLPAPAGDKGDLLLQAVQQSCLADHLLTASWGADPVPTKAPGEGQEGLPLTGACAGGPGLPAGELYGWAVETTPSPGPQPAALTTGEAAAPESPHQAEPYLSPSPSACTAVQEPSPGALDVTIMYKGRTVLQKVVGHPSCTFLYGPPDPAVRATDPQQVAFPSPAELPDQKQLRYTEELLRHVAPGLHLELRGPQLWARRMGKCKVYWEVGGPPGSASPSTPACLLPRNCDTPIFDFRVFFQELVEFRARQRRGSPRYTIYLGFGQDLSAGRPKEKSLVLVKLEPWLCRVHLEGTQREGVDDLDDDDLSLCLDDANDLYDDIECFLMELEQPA
Strand | log fluorescence [z-score]
TCTCCTTTCGGAATACCCTCGTGCTAG | 2.7
GACGATCTCATTTTCGAGACGTGCTAG | 0.837
TTAGGTTTCGGTTCCTGTTAGTGCTAG | 13.1
TCAATTGGTTGAACATGACTGTGCTAG | 0.242
TCAGGTATCGACACTGGGTTAGTGCTA | -0.116
TCATATGTGTATATATAACTGTGCTAG | 0.152
TTTAGGTCCCTTTTCATGCTGTGCTAG | 2.32
GATGGTATCGGTTTCGGGACGTGCTAG | 7.54
TCCCATTAAATTTTAATAACGTGCTAG | 0.447
TTAGGTTTCCACACTGGGTTAGTGCTA | 0.944
CTAGGTTTCGGTCTCGGTTAGTGCTAG | 8.87
GACGATCTCAGACTGGAAACGTGCTAG | -0.0447
TTAGATATTAAACTGATAGGGTGCTAG | 0.147
GACGATTTCGGGACTGGAGACGTGCTA | 0.117
TCAAATAATCTTTTCACACTGTGCTAG | 0.127
TAAGGTTTCGGGTTTCGGTTAGTGCTA | 12.9
TTAGAACTGAATATCGATTAGTGCTAG | 0.0249
TCACCTCTCTCTTTCCAACTGTGCTAG | 0.547
TCAATTTCCATTATTGCACTGTGCTAG | 1.76

Set 3
Target: Histone acetyltransferase KAT6A, winged helix 1, GST fusion (KAT6A, Homo sapiens, UniProt Q92794, residues 1-85)
Method: protein binding microarray
Form: double-stranded DNA, one strand shown
Medium: in vitro
Tested at: not given
Setting: 8-mer, flanks averaged, mean of 2 arrays, mostly near background
Baseline: not given
Reading: higher = stronger binding
Residues (chain): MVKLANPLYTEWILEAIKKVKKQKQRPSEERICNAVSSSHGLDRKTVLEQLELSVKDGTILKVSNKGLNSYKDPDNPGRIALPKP
Strand | E-score
GTGAATAA | -0.166
CTTTCGAA | -0.168
CATGGAAG | -0.173
GCCGGGAA | 0.338
CTCTACCA | -0.103
CTACACAA | -0.181
TCATAGAA | -0.133
CTCATCAG | -0.0936
AGATGGAC | -0.108
CTGCGCTA | 0.219
AGGAGGCG | 0.187
AGCCGGCA | 0.351
GAATGTCA | -0.305
ACTGGAAT | -0.248
CGTTGTAA | -0.08
CATACAAG | -0.172
CTACGGCA | 0.381
ATGTCTCC | 0.0765
CGCGAGAC | 0.163
ACGAAGTA | -0.087
ACTGTACA | -0.201
CACCTACA | -0.19
CACGTGCG | 0.295
AACGTAGA | -0.0434
AAATCATC | -0.304

Set 4
Target: RNA binding protein fox-1 homolog 2, RRM domain, GST-SBP tag (RBFOX2, Homo sapiens, UniProt O43251-10, residues 100-194)
Method: RNA Bind-n-Seq
Form: RNA
Medium: in vitro
Tested at: 365 nM
Setting: natural RNA segment, single round, ends assumed
Baseline: no-protein control
Reading: higher = stronger binding
Shared flanks, not repeated: GGGAGUUCUACAGUCCGACGAUC … UGGAAUUCUCGGGUGCCAA
Construct (chain): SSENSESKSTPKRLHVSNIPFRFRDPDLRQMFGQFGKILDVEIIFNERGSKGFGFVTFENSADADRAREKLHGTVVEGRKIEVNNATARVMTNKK
Strand | RBNS enrichment (R)
AGAGCCCACUUACUCCUCCUCGUUCUAGGACACGGUCAUCUUUCCUUAGGAAAUUAAAAUGCUUCAUAUUAUCUGGGCAUGGUGGUGCACCCCUGUAGUCUCAGAACUCU | 0.393
AGUUUUCACAAAUUCCUCAUGUACUUUGAAUAUAACAUAAAGUUCGACAAAAUCUAUUCUAAUGUGGCUUUUUAUGGAGGGUGUAACUGUAAUGUAUUCAAAAUUGUCAG | 0.512
CAGAAGGCACGUGAAUGUGUUUGCUUUGGCUUGGAGCUUAUUAAGUUUUGACUACGGUUAAAAUAAGUCAAAUAGUAAGUGGUAAAACACAUUUUUGUUAGUAUUGGAAC | 1.23
UUUCUUUGAGUGACCGUCUGUGCAGGCCCUGUAGUCCGCCACAGGGCUCUGAGCUGCACUGGCCCCGGUGCUGGCAUCUGGUGGAGCGGACCCACUCCCCUCACAUUCCA | 0.184
UCACAUGGAAGGCGGCACAGAGGCAGCUGUGUGGGCUGCAGAUUUCCUGUGUGGGGUUCAGCGUAGAAAACGCACCUCCAUCCCGCCCUUCCCACAGCAUUCCUCCAUCU | 0.614
CUGGUCACAGGACUCUGCCUCCUCUUCAACUGACCAGCCUCCAUGCUGCCUCCAGAAUGGUCUUUCUAAUGUGUGAAUCAGAGCACAGCAGCCCCUGCACAAAGCCCUUC | 0.189
CCUCCAUCUAAAGGCAACAUUCCUUACCCAUUAGUCUCAGAAAUUGUCUUAAGCAACAGCCCCAAAUGCUGGCUGCCCCCAGCCAAGCAUUGGGGCCGCCAUCCUGCCUG | 0.228
UUUGCUGUCCGCUUUUCUCUGUGACCACAGCAGCCCUGAACAACCAGUAUGUGUCUUCUUCUCCAGAUAGUGAAAAAGGUGUCCAGAUAAACCCACCUAAGUGAAAUGGC | 0.73

For quick reference, copied from above (set 3):
Strand | E-score
CGCGAGAC | 0.163
ACGAAGTA | -0.087
ACTGTACA | -0.201
CACCTACA | -0.19
